Experimental data of several laboratories.
Protocols differ between the studies behind these lines. Values joined by “and” are separate records of one study, mostly repeats; a detail may differ. ± gives the spread as reported.
Gria2: Glutamate receptor 2 (Gria2, Rattus norvegicus, UniProt P19491)
Chain of UniProt P19491 (whole entry, looked up): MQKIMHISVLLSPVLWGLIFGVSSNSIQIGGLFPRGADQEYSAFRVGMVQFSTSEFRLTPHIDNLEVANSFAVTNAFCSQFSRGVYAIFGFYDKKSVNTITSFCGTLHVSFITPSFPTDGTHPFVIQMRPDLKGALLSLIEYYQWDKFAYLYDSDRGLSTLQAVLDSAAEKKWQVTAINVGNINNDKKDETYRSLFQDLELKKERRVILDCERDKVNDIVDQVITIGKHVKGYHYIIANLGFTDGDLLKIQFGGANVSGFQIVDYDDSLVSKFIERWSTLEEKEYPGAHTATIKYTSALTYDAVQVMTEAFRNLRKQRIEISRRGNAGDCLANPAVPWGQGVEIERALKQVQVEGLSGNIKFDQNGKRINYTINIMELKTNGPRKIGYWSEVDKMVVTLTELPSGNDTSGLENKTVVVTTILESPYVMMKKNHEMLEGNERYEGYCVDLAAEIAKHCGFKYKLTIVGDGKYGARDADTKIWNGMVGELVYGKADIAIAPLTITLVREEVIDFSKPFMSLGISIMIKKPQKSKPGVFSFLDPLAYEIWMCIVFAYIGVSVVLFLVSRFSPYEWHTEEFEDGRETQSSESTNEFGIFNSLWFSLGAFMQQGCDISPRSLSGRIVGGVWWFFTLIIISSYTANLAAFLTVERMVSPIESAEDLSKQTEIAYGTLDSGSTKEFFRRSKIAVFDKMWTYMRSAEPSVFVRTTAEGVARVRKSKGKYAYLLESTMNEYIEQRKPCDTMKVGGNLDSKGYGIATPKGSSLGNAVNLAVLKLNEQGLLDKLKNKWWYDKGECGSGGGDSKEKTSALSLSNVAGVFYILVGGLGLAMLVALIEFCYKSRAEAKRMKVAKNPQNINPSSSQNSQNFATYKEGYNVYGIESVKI
CASP7: Caspase-7 (CASP7, Homo sapiens, UniProt P55210)
T1: riboswitch RNA, fused to Pepper aptamer; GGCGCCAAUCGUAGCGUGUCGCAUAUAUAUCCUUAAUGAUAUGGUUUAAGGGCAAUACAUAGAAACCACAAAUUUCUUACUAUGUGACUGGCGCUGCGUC
T2: G-quadruplex DNA (Homo sapiens); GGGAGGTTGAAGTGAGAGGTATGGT
T3: G-quadruplex DNA, G-quadruplex (Homo sapiens); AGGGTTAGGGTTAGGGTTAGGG
Chain of UniProt Q93009 (whole entry, looked up): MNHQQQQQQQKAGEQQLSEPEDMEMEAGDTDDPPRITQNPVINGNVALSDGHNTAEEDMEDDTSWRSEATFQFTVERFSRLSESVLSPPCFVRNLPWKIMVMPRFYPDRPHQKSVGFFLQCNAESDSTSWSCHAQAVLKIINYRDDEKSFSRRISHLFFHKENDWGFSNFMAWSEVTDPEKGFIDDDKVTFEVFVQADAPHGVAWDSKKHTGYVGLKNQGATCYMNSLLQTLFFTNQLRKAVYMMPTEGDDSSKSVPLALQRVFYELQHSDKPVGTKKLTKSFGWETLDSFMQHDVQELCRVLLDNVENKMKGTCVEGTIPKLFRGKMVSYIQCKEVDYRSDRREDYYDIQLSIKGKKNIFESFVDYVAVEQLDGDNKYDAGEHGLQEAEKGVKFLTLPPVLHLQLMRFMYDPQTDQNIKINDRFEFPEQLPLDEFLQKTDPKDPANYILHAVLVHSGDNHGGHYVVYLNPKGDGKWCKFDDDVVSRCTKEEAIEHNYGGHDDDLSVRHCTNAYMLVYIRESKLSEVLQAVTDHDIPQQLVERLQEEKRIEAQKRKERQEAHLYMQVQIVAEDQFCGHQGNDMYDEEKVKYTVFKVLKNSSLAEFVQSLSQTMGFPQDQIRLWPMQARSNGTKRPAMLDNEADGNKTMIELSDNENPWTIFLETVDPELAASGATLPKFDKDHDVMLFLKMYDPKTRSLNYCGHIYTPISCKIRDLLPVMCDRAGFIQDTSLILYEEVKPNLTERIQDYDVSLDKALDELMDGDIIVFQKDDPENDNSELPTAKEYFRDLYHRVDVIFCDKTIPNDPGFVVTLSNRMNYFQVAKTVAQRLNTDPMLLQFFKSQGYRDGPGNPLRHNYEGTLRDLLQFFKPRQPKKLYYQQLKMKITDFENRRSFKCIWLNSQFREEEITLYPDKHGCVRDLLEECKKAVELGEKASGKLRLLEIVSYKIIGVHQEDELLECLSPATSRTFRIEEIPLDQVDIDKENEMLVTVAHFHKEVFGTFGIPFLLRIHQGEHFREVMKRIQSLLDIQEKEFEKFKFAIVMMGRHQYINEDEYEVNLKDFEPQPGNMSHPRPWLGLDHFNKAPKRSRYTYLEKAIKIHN
Chain of UniProt P02716 (whole entry, unmodified, looked up): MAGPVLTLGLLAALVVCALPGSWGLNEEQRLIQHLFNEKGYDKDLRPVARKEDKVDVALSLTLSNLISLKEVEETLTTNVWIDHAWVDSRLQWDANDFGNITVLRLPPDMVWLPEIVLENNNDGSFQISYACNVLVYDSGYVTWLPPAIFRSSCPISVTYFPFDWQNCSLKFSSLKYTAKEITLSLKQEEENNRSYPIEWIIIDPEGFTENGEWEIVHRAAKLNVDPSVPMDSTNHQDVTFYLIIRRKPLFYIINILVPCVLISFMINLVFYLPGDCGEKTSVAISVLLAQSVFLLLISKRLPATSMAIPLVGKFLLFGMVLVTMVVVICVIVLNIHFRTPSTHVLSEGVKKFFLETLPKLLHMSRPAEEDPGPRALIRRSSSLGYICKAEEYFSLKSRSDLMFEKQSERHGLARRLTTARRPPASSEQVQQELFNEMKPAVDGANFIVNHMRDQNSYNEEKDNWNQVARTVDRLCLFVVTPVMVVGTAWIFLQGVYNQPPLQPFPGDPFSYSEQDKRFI
Chain of UniProt P04756 (whole entry, unmodified, looked up): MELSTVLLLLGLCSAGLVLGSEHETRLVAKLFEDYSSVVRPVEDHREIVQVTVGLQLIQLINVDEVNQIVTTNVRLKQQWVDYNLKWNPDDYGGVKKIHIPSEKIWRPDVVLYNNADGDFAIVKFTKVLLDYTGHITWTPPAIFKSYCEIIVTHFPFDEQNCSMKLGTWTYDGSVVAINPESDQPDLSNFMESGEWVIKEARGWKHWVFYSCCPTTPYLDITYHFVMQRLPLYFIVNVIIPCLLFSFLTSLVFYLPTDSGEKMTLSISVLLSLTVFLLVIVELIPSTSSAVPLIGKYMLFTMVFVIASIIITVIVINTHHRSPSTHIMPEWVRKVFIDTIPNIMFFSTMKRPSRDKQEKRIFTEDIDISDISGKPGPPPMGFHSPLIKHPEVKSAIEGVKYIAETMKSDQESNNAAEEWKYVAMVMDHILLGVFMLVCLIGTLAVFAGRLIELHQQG
Chain of UniProt Q9Y3A3 (whole entry, looked up): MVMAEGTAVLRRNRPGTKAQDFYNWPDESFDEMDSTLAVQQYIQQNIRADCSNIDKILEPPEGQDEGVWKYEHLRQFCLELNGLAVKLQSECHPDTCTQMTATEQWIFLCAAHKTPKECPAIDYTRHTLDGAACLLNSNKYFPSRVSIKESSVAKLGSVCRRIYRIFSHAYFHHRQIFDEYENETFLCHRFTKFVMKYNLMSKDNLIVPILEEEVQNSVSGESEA
Chain of UniProt O75874 (whole entry, unmodified, looked up): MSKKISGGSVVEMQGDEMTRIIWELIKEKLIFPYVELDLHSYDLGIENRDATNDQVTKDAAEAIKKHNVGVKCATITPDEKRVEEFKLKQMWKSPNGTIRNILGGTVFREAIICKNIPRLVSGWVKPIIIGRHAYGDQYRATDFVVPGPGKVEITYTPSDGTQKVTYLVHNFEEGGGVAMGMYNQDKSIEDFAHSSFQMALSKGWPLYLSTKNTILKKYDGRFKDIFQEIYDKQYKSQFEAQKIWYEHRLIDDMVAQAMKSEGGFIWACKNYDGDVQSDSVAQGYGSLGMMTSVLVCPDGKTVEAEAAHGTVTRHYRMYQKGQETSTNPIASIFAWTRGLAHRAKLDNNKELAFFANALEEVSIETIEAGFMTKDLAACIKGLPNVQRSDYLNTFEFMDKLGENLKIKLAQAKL
Chain of UniProt O75030 (1-296, unmodified, looked up): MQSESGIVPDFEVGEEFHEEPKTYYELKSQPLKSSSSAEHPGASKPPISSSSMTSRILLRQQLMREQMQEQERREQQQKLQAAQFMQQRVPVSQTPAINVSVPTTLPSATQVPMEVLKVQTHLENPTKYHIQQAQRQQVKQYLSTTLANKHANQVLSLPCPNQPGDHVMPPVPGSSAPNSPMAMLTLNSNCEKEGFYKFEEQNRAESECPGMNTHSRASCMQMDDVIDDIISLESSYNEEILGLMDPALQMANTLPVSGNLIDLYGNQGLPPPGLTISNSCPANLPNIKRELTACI
Chain of UniProt P34972 (whole entry, looked up): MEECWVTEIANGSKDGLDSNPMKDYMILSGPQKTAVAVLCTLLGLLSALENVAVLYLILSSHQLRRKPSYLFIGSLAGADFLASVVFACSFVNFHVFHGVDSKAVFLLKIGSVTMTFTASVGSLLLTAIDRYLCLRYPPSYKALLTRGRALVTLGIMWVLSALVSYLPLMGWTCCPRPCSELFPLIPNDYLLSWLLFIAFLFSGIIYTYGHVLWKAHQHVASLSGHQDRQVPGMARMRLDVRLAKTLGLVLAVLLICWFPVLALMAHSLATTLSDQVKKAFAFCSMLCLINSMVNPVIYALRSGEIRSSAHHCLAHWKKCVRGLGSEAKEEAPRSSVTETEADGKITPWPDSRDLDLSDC

| SMILES | target or system | test | system | setting | how to read | quantity | result |
| --- | --- | --- | --- | --- | --- | --- | --- |
| CC(C)C[C@H](NC(=O)[C@H](Cc1ccc(O)cc1)NC(=O)[C@@H](CCCNC(=N)N)NC(=O)[C@@H](CO)NC(=O)[C@H](Cc1ccccc1)NC(=O)[C@H](CC1CCCCC1)NC(=O)[C@H](CC(=O)O)NC(=O)CN1CCN(CC(=O)O)CCN(CC(=O)O)CCN(CC(=O)O)CC1)C(=O)N[C@@H](Cc1c[nH]c2ccccc12)C(=O)N[C@@H](CO)C(=O)O [copper-64 labelled] | – | – | human, stomach contents | concentration not given, 24 h | – | activity concentration | 400 Bq/mL and 944 Bq/mL and 166 Bq/mL and 1240 Bq/mL and 942 Bq/mL and 683 Bq/mL |
| Cc1sc2c(c1C)C(c1ccc(Cl)cc1)=N[C@@H](CC(=O)NCCCCNC(=O)COc1cccc3c1C(=O)N(C1CCC(=O)NC1=O)C3=O)c1nnc(C)n1-2 (stereo partly shown) | BRD4/CRBN, BD2; CRL4 complex (Homo sapiens, UniProt O60885+Q96SW2) | ternary complex formation, degrader, FRET | – | BRD4 BD2 with CRL4-CRBN | – | cooperativity alpha | < 1 |
| COC(=O)Cc1cc2c(cc1C(=O)c1ccc(Cl)cc1Cl)OCO2 | Gria2 | glutamate-evoked current, whole-cell patch clamp | HEK-293T | concentration not given, glutamate alone after washout, with: glutamate | – | current amplitude after recovery | 1260 ± 64 pA |
| CCCCCC(O)/C=C/C=O (stereo not shown) | MTHFD1L (Homo sapiens, UniProt Q6UB35) | competitive isoTOP-ABPP | proteome, soluble, MDA-MB-231 | 100 µM, 60 min, with: iodoacetamide probe | baseline: DMSO over compound-treated, higher = stronger cysteine blockade | isoTOP-ABPP competition ratio | 3 |
| CCOC(=O)[C@@](CC)(CCCSCCOCCOCCNC(=O)OC(C)(C)C)NC(=O)c1ccc(C2CC2)c(Cc2ccc(F)cc2)n1 | CNR2 (Homo sapiens, UniProt P34972) | radioligand binding | – | – | baseline: CB1 over CB2 (human) | Ki ratio | 10 |
| CC(C)C[C@H](NC(=O)[C@@H](CCCCNC(=O)[C@@H](Cc1ccccc1)NC(=O)CCCCCCCNC(=O)CN1CCN(CC(=O)O)CCN(CC(=O)O)CCN(CC(=O)O)CC1)NC(=O)[C@H](Cc1ccc(O)cc1)NC(=O)[C@H](CO)NC(=O)[C@H](Cc1c[nH]c2ccccc12)NC(=O)[C@H](Cc1c[nH]cn1)NC(=O)[C@@H]1CCC(=O)N1)C(=O)N[C@@H](CCCNC(=N)N)C(=O)N1CCC[C@H]1C(=O)NCC(N)=O [indium-111 labelled] | GNRHR (Homo sapiens, UniProt P30968) | radioligand binding | – | concentration not given, 3 h, 25 °C, with: 1 µM unlabelled competitor | – | specific binding blocked | 79% |
| Cc1ccc(NC(=O)c2nn(C)c(=O)c3ccccc23)nc1 | human kinase panel | binding, KINOMEscan | – | 10000 nM, %Ctrl below 35 | – | number of kinases hit | 0 |
| N#CN1CC[C@H](C(=O)Nc2nc3c(s2)CN(C(=O)Cn2cc(COCCOCCOCCOCCNC(=O)CCCC[C@@H]4SC[C@@H]5NC(=O)N[C@@H]54)nn2)CC3)C1 | USP7 (Homo sapiens, UniProt Q93009) | probe binding, affinity probe, neutravidin pull-down LC-MS/MS | HEK293T, cell lysate | 5 µM, 1 h, single replicate, unit not given | higher = more pulled down | iBAQ abundance | 3.95e+06 and 6.13e+06 and 6.7e+06 |
| CC(=O)N1C[C@H](O)C[C@H]1C(=O)N[C@H](C(=O)N[C@@H](CO)C(=O)N[C@@H](CC(=O)O)C(=O)COC(=O)c1c(C)cccc1C)C(C)(C)C | CASP7 | enzyme activity, inhibitor | – | – | – | kinact/KI | 4100 M⁻¹ s⁻¹ |
| COC1CN([C@H]2CC[C@H]([C@@]3(C)Oc4c(Cl)cc(C(=O)NCc5c(SC)cc(C)[nH]c5=O)c(C)c4O3)CC2)C1 | – | RNA-seq, item: MICU1 | human, whole blood | dose not given, 24 h | baseline: pretreatment baseline | log2 fold change | 1.06 |
| Nc1nc2c(ncn2[C@@H]2O[C@H](CO)[C@@H](O)[C@H]2O)c(=O)[nH]1 | T1, riboswitch RNA, fused to Pepper aptamer | fluorescence | – | 5 µM | – | binding | binds |
| CC(=O)[O-].O.O.O.O.[Co+2].[O-]c1ccc(Br)cc1C=NCCN1CCOCC1 | – | FRAP | – | 200 µM | – | ferric reducing power | 51.3% |
| O=C(Nc1cnccc1-c1ccc([18F])nc1)c1ccnc(NC(=O)C2CC2)c1 | – | – | FVB/NJ mice, both sexes, liver | intravenous, 25 min, median, no P-gp inhibitor | – | SUV | 8.97 |
| CC1CCc2nc(-c3c[nH]nc3-c3ccccc3)ccc2N1 (stereo not shown) | human kinase panel | binding, KINOMEscan | – | 10000 nM, %Ctrl below 35 | – | number of kinases hit | 1 |
| Cc1cc(=O)oc2cc(NC(=O)CCCCCCCC(=O)NO)ccc12 | HDAC8 (Homo sapiens, UniProt Q9BY41) | ITC | Tris-HCl buffer | 293 K | – | TΔS° | 4.3 kcal/mol |
| CCCC[C@H](NC(=O)CCCCCCCNC(=O)CN1CCN(CC(=O)O)CCN(CC(=O)O)CC1)C(=O)N[C@H]1CC(=O)NCCCC[C@@H](C(N)=O)NC(=O)[C@H](Cc2c[nH]c3ccccc23)NC(=O)[C@H](CCCNC(=N)N)NC(=O)[C@@H](Cc2ccccc2)NC(=O)[C@H](Cc2c[nH]cn2)NC1=O [technetium-99m labelled] | – | – | C57 mouse, skin | intravenous, 0.037 MBq, 2 h | – | tissue uptake | 0.25 ± 0.14 %ID/g |
| COC(=O)Cc1cc2c(cc1C(=O)c1cccc(I)c1)OCO2 | Gria2 | glutamate-evoked current, whole-cell patch clamp | HEK-293T | concentration not given, weighted tau, 1 ms pulse, with: glutamate | – | deactivation time constant | 2.7 ± 0.1 ms |
| O=C1c2ccc3c4ccc5c6c(ccc(c7ccc(c2c37)C(=O)N1CCN1CCCCC1)c64)C(=O)N(CCN1CCCCC1)C5=O | hTERT promoter G-quadruplex DNA | binding, thiazole orange displacement | – | pH 8 | – | DC50 | 1480 ± 310 nM |
| O=C1c2sc(-c3ccc(N4CCC(F)C4)nc3F)nc2CCN1c1cccnc1 (stereo not shown) | TAR DNA-binding protein 43, aggregated (TARDBP, Homo sapiens, UniProt Q13148) | radioligand binding | human, FTLD-TDP type B sarkosyl-insoluble extract | 37.19 nM | – | specific binding | 1.59 nM and 2.01 nM |
| O=C(N/N=C/c1ccc(C[n+]2ccccc2)cc1)c1cc(C(=O)N/N=C/c2ccc(C[n+]3ccccc3)cc2)ncn1 | telomeric G4 DNA hybrid-2 | FRET melting | – | 1 µM, DNA 0.2 µM | – | ΔTm | 3.1 ± 1 °C |

| SMILES | target or system | test | system | setting | how to read | quantity | result |
| --- | --- | --- | --- | --- | --- | --- | --- |
| CC(=O)N[C@@H](CC(=O)O)C(=O)N[C@@H](C)C(=O)N[C@@H](Cc1ccc(N)cc1)C(=O)N[C@@H](CC(=O)O)C(=O)COC(=O)c1c(C)cccc1C | CASP7 | enzyme activity, inhibitor | – | – | – | kinact/KI | 216000 M⁻¹ s⁻¹ |
| C=CC(=O)N1CC2(CCN(c3nc(OC4CCN(CCCOC)CC4)nc4c(OCC(F)(F)F)c(-c5c(C)ccc6[nH]ncc56)c(C5CC5)cc34)CC2)C1 | GTPase KRas, GDP-bound (KRAS, Homo sapiens, UniProt P01116) | – | – | – | – | kon | 36000 ± 7800 M⁻¹ s⁻¹ |
| N[C@H]1CC[C@H](Nc2nccc(-c3cccnc3Oc3ccc(NC(=O)NC4CC4)c4ccccc34)n2)CC1 | Small ribosomal subunit protein eS19 (Homo sapiens, UniProt P39019) | kinobead competition pulldown, item: RPS19 | HEK293/HCT116 lysate mixture | 10 µM, 1 h, 4 °C | lower = stronger competition | log2 LFQ intensity | 22.9 and 22.7 and 22.2 and 22.5 |
| C/C1=C\CC/C(C)=C/CC(C)(C)/C=C/C1 | TRPV4 (Homo sapiens, UniProt Q9HBA0) | inhibitor, outside-out patch clamp | – | 100 µM, 5 min, with: GSK1016790A 1 µM | – | remaining current | 4 ± 3% |
| C=CC(=O)Nc1cccc(Cn2ncc3cnc(Nc4cnn(CCOC)c4)nc32)c1 | human SNARK | KINOMEscan | – | 100 nM | baseline: control | binding | 20% |
| CNC(=O)c1cnc(Nc2ccncc2)nc1-c1ccc(C)cc1 | human kinase panel | binding, KINOMEscan | – | 10000 nM, %Ctrl below 35 | – | number of kinases hit | 3 |
| CC(C)[C@@H]1NC(=O)[C@H](Cc2ccccc2)NC(=O)CSC[C@@H](C(N)=O)NC(=O)[C@H](CCC(=O)O)NC(=O)[C@H](CO)NC(=O)[C@H](Cc2c[nH]c3cccc(Cl)c23)NC(=O)[C@H](C2CCCCC2)NC(=O)[C@H](C(C)C)NC(=O)[C@H](Cc2ccc(O)cc2)NC(=O)[C@H](CC(=O)O)NC(=O)[C@H](Cc2c[nH]c3ccccc23)NC(=O)[C@H](Cc2ccc(N)nc2)NC(=O)[C@H](Cc2c[nH]c3ccc(Cl)cc23)NC(=O)[C@H](CCC(=O)O)NC1=O | Interleukin-1 receptor-like 2 (IL1RL2, Homo sapiens, UniProt Q9HB29) | reporter gene (SEAP), inhibitor, HEK-Blue IL-36R reporter | HEK-Blue IL-36R cells | 1.23 µM, 6 h, with: IL-36β 0.03 ng/mL | – | remaining activity | 4.3% |
| C[N+]1(C)CCCC1 | Chrnd/Chrna1/Chrne (Mus musculus, UniProt P02716+P04756+P20782, G173S/S470W) | binding, agonist, single-channel recording | – | binding site chain S side | – | koff | 2910 s⁻¹ |
| Cc1ncsc1-c1ccc(C(C)NC(=O)C2CC(O)CN2C(=O)C(NC(=O)CCCCCCCCCCN2CCCC(Nc3ncc(Cl)c(Nc4ccccc4S(=O)(=O)C(C)C)n3)C2)C(C)(C)C)cc1 (stereo not shown) | 22Rv1 | RNA-seq, item: POLL mRNA | – | concentration not given | baseline: DMSO | log2 fold change | -1.47 |
| CN(C)c1ccc(C2=C/C(=C/C=C/c3sc4ccccc4[n+]3C)c3ccccc3O2)cc1 | T2, G-quadruplex DNA (Homo sapiens) | fluorescence turn-on | – | – | – | binding | binds |
| Cc1cc(C#CC2(O)CCCCC2)cc2c1cc(C(=O)O)n2-c1cccc(Cl)c1 | Microphthalmia-associated transcription factor, residues 1-296 (Homo sapiens, UniProt O75030) | isothermal titration calorimetry | – | 25 °C | – | ΔG | -35.9 kJ/mol |
| C#CCCC1(CCC(=O)NCC2CN(CCCCCNC(=O)CN(CCN)C(=O)Cn3cnc4c(=O)[nH]c(N)nc43)CCN(CCCCCNC(=O)CN(CCN)C(=O)Cn3cnc4c(=O)[nH]c(N)nc43)CCN(CCCCCNC(=O)CN(CCN)C(=O)Cn3cnc4c(=O)[nH]c(N)nc43)CCN2CCCCCNC(=O)CN(CCN)C(=O)Cn2cnc3c(=O)[nH]c(N)nc32)N=N1 (stereo not shown) | T3, G-quadruplex DNA, G-quadruplex (Homo sapiens) | photo-cross-linking | – | – | – | binding | binds |
| C#CCOC(=O)[C@]1(C)C=C(C(=O)OC(C)(C)C)C(=O)CC1 | MAPK1 (Homo sapiens, UniProt P28482) | enzyme activity, D-SENSOR | – | 1.646 µM, single replicate | – | normalized kinase activity | 0.867 and 0.997 and 0.643 |
| Cc1c(C(=O)Nc2cccc(C(N)=O)c2)cnn1-c1ccccc1 | Genome polyprotein, NS2B-NS3 protease (dengue virus type 2, UniProt P29990) | reporter gene | HeLa | 12.5 µM | – | inhibition | 27 ± 12% |
| CNC(=O)C1CCCN(C(=O)C2CC3CCC2N3C(=O)[C@@H]2C[C@@H](O)CN2C(=O)NCc2cccc(Cl)c2F)C1 (mixture of isomers) | human CYP3A4 | time-dependent inhibition | – | 0.0686 µM, preincubation with NADPH, with: testosterone | – | 6β-hydroxytestosterone formed | 180 ng/mL |
| C[C@@H](Nc1nc(N[C@H](C)C(F)(F)F)nc(-c2cccc(Cl)n2)n1)C(F)(F)F | IDH1 (Homo sapiens, UniProt O75874, R132C) | item: 2-hydroxyglutarate | COR-L105 | – | – | maximal inhibition | 91% |
| [2H]C([2H])([18F])Oc1cc(C(=O)OCC2CCN(CCCC)CC2)ccc1N | – | 5-HT4 receptor binding, PET | rhesus monkey (Macaca mulatta), brain striatum | dose not given, baseline scan, unit not given | baseline: cerebellum reference region | binding potential BPND | 1.19 ± 0.15 |
| CCCCCCCCCCCCC/C=C/C=O | MOB4 (Homo sapiens, UniProt Q9Y3A3) | competitive isoTOP-ABPP | Ramos soluble proteome | 100 µM, 60 min, with: iodoacetamide probe | baseline: DMSO over compound-treated, higher = stronger cysteine blockade | isoTOP-ABPP competition ratio | 1 |
| CC(=O)N[C@@H](Cc1ccc(C)cc1)C(=O)N[C@@H](CCCC(=O)O)C(=O)N[C@H](C(=O)N[C@@H](CC(=O)O)C(=O)COC(=O)c1c(C)cccc1C)C(C)(C)C | CASP7 | enzyme activity, inhibitor | – | – | – | kinact/KI | 9000 M⁻¹ s⁻¹ |
| COc1ccc(C(OCCN2CCCC(C(=O)O)C2)(c2ccc(OC)cc2)c2ccc(OC)cc2)cc1 (stereo not shown) | SLC6A1 (Homo sapiens, UniProt P30531) | GABA transport, inhibitor, radioligand uptake | HEK293F transfected | 4 µM, 15 min pre, 45 min uptake, room temperature, with: [3H]-GABA 30 nM, GABA 25 µM | higher = more uptake | [3H]-GABA uptake | 3950 a.u. and 1200 a.u. and 1300 a.u. and 1020 a.u. and 1400 a.u. and 3440 a.u. and 911 a.u. and 917 a.u. |
